Experimental data from different studies.
Each numbered part is a random draw from the data of one study; scales do not carry over between parts. Substitutions count along the parent as printed.

Block 1
Target: CREBL2, bZIP domain (human)
Technique: DHFR protein complementation
Sample: yeast
Setting: single substitutions, most at no-binding floor
Reference: wild-type JUN-FOS pair
Reading: higher = stronger binding
Starting sequence: JUN, bZIP domain (human); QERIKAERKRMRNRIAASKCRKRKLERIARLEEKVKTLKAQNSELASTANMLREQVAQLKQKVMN; partner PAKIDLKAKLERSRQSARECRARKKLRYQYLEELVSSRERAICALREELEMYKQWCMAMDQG
`L45H` gave a binding fitness of -1.48 natural log.
The binding fitness of `E33F` is reported as -1.29 natural log.
`T37M` has a binding fitness of -1.23 natural log.
`A29V` gave a binding fitness of -1.6 natural log.
`K34F` has a binding fitness of -1.39 natural log.
The binding fitness of `E44N` is reported as -1.54 natural log.
`A40I` gave a binding fitness of -1.62 natural log.
With `A29W` the binding fitness was -1.41 natural log.

Block 2
Target: TAR DNA-binding protein 43, full length, His tag (TARDBP, Homo sapiens, UniProt Q13148, residues 1-414)
Technique: RNA Bind-n-Seq
Molecule type: RNA
Sample: in vitro
Tested at: 20 nM
Setting: 6-mer, flanks averaged, single round
With: 150 mM LiCl
Reference: input library
Reading: higher = stronger binding
`UUCCCC`: “6-mer enrichment (R)” 1.18.
`CUCGUU`: “6-mer enrichment (R)” 0.872.
Under “6-mer enrichment (R)”, `CCCAUC` is recorded as 0.97.
`AUGACG`: “6-mer enrichment (R)” 0.882.
`GACUCA`: “6-mer enrichment (R)” 0.855.
For `AAAGAC`, “6-mer enrichment (R)” read 0.769.
`GCAUAG`: “6-mer enrichment (R)” 0.914.
`GCUUUU`: “6-mer enrichment (R)” 1.16.

Block 3
Target: Histone acetyltransferase KAT6A, winged helix 1, GST fusion (KAT6A, Homo sapiens, UniProt Q92794, residues 1-85)
Technique: protein binding microarray
Molecule type: double-stranded DNA, one strand shown
Sample: in vitro
Tested at: not given
Setting: 8-mer, flanks averaged, mean of 2 arrays, mostly near background
Reference: not given
Reading: higher = stronger binding
Residues (chain): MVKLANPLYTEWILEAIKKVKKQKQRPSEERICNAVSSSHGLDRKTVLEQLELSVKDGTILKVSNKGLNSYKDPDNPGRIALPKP
For `ATCACAAT`, the E-score was -0.179.
The E-score of `AGTGACTC` is reported as -0.159.
`AAATGGGA` gave an E-score of -0.289.
`ACGTCGCG` has an E-score of 0.235.
`CAAGCCTC` has an E-score of -0.148.
`CAGGTCGC` gave an E-score of 0.102.
With `ACTCAACC` the E-score was -0.107.
With `ACGGGGCC` the E-score was 0.216.

Other studies, line by line
Starting sequence: viral docking peptide; PGASRRLFGSSAD
`S11A` — result for “normalised enrichment score”: 4.05 (CCNF, cyclin fold, Cln2 fusion (human); yeast growth competition, sequencing; yeast; strong parent motif; reference: not given, higher = stronger binding).

For quick reference, copied from above (block 3):
The E-score of `AGTGACTC` is reported as -0.159.
`AAATGGGA` gave an E-score of -0.289.
`ACGTCGCG` has an E-score of 0.235.
`CAAGCCTC` has an E-score of -0.148.
